Measured values from different studies.
Parts stem from different laboratories: compare values within a part only.
Sequence of UniProt P35968 (whole entry, looked up): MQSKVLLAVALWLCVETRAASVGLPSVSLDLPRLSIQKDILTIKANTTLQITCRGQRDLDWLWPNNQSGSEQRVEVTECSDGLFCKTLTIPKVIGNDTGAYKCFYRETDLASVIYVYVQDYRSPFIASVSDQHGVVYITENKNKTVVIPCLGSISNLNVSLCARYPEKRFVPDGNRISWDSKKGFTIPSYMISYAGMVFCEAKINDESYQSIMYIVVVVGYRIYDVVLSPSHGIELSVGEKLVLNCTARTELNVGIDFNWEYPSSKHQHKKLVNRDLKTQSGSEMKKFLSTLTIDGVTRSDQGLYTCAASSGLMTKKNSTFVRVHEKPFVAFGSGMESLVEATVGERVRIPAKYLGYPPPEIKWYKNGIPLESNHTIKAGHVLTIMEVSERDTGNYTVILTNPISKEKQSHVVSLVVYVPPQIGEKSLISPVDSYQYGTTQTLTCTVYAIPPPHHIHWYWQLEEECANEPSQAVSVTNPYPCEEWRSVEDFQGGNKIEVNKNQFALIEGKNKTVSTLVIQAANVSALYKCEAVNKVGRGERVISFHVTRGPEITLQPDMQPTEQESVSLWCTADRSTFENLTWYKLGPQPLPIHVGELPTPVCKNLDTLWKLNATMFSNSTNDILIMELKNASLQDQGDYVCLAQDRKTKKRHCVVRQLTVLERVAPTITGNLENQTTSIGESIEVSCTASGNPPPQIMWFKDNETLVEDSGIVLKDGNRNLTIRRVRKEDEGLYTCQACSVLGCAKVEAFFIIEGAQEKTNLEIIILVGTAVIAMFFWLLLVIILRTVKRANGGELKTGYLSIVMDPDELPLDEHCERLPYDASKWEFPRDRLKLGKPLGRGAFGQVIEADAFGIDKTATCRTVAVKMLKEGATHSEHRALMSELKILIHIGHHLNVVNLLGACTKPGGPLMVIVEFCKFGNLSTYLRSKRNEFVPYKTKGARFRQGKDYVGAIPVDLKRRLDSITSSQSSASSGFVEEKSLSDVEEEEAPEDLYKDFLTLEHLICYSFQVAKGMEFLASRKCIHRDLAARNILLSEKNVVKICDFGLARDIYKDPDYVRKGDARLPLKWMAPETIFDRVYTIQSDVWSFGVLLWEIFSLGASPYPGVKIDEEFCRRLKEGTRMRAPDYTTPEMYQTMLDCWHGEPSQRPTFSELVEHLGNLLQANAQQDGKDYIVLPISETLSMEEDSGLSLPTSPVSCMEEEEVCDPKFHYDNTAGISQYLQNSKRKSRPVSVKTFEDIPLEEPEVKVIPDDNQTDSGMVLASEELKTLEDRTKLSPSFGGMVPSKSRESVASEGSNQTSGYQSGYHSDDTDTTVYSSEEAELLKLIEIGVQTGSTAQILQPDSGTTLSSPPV
Sequence of UniProt Q13237 (whole entry, looked up): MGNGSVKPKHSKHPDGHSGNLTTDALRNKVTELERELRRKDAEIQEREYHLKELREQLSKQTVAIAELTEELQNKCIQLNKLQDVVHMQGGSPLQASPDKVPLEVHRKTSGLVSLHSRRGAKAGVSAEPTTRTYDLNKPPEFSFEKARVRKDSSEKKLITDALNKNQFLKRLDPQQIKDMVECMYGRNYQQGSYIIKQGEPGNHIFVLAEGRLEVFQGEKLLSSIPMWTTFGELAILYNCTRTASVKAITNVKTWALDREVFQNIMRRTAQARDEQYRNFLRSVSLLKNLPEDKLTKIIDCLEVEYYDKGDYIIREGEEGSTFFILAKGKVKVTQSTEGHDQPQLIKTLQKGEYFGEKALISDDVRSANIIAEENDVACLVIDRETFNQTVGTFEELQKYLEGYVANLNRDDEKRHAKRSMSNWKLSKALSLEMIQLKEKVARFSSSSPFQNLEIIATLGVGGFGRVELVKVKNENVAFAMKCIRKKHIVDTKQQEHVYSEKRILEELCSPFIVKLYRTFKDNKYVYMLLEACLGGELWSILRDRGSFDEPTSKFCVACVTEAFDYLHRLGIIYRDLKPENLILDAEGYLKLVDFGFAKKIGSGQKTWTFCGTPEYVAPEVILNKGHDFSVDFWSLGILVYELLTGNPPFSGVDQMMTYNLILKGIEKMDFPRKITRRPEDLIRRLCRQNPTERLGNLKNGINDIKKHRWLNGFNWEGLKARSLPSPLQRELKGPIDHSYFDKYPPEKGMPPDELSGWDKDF
Sequence of UniProt Q13464 (whole entry, looked up): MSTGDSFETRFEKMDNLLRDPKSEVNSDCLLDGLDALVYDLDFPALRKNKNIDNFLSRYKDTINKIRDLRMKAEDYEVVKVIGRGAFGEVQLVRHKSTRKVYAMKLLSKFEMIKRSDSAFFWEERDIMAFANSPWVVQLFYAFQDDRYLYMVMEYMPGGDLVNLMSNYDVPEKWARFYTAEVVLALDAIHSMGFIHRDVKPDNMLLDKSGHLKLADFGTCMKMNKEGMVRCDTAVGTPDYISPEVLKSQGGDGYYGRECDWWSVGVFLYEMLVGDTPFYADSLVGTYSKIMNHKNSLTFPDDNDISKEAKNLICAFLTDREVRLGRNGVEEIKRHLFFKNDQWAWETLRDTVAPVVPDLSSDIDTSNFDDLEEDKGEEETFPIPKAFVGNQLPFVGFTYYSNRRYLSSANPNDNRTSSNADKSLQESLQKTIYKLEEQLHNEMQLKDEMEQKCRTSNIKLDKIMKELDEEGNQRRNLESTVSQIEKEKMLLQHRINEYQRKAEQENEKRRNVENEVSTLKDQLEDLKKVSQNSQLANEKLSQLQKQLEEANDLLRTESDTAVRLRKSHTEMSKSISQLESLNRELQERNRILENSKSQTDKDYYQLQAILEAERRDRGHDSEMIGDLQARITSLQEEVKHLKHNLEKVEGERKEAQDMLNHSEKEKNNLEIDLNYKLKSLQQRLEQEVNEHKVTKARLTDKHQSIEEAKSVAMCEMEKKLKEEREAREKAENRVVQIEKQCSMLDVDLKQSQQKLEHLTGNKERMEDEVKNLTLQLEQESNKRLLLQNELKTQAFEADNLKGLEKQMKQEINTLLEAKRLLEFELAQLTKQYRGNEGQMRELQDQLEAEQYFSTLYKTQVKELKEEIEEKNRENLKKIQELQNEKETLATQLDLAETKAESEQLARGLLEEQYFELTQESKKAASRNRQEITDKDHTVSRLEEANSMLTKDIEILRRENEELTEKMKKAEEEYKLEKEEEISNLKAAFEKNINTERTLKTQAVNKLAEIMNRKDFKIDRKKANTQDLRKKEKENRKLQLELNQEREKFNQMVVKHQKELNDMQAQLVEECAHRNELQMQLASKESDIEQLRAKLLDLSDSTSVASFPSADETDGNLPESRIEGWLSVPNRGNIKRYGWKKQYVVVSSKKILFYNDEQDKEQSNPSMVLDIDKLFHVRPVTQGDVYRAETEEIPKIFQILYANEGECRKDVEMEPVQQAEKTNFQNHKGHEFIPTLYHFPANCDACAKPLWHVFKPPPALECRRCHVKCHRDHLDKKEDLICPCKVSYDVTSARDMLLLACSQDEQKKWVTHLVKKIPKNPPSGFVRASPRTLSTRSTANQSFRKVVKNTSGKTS

Series 1
Target: Calcium/calmodulin-dependent protein kinase type II subunit alpha (CAMK2A, Homo sapiens, UniProt Q9UQM7)
Sequence of UniProt Q9UQM7 (whole entry, looked up): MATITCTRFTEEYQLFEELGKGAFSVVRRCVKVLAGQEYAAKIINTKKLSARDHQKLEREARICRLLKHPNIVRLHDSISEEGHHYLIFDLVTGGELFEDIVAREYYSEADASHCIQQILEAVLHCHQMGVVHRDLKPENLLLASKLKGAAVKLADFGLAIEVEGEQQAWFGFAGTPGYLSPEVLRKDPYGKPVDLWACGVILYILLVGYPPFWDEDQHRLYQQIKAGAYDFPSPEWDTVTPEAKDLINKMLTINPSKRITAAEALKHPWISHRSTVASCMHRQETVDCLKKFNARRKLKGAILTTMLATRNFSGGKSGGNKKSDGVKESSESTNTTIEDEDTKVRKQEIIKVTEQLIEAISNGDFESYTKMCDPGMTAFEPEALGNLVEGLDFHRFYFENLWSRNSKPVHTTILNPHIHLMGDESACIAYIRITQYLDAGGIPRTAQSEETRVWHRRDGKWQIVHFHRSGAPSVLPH
Effect on: enzyme activity
Action: inhibitor
Tested at: 10 µM
SMILES | inhibition [%]
C/C(=C\c1csc(C)n1)[C@@H]1C[C@@H]2O[C@@H]2CCC[C@H](C)[C@H](O)[C@@H](C)C(=O)C(C)(C)[C@@H](O)CC(=O)O1 | -2
CC(=O)c1c(O)c(C)c(O)c(Cc2c(O)c3c(c(C(=O)/C=C/c4ccccc4)c2O)OC(C)(C)C=C3)c1O | -27
CC(C)CCC(=O)c1ccoc1 | -5
NC(=O)c1cn([C@@H]2O[C@H](CO)[C@@H](O)[C@H]2O)c2ncnc(N)c12 | -4
O=Cc1ccc[nH]1 | -58
CN[C@H]1C[C@@H](N)[C@H](O)[C@@H](O[C@@H]2O[C@H](CO)[C@H](O)[C@@H]3OC4(O[C@H]23)O[C@H]([C@@H](N)CO)[C@H](O)[C@H](O)[C@H]4O)[C@@H]1O (stereo partly shown) | 26

Series 2
Structure (SMILES): Cc1c(N2CCNCC2)nc2ccc(Br)cc2c1C(=O)NC[C@H](CCC(=O)O)c1ccccc1Cl
Effect on: ligand displacement
Tested at: 10 µM
target | inhibition
Sodium-dependent dopamine transporter (SLC6A3, Homo sapiens, UniProt Q01959) | 33.5%
Sodium-dependent noradrenaline transporter (SLC6A2, Homo sapiens, UniProt P23975) | 14.1%
5-hydroxytryptamine receptor 1E (HTR1E, Homo sapiens, UniProt P28566) | 18.3%
5-hydroxytryptamine receptor 1B (HTR1B, Homo sapiens, UniProt P28222) | 15.2%
Sodium-dependent serotonin transporter (SLC6A4, Homo sapiens, UniProt P31645) | 5.34%

Series 3
Target: CRBN/Zinc finger protein Helios (Homo sapiens, UniProt Q96SW2+Q9UKS7)
Sequence of UniProt Q9UKS7 (whole entry, looked up): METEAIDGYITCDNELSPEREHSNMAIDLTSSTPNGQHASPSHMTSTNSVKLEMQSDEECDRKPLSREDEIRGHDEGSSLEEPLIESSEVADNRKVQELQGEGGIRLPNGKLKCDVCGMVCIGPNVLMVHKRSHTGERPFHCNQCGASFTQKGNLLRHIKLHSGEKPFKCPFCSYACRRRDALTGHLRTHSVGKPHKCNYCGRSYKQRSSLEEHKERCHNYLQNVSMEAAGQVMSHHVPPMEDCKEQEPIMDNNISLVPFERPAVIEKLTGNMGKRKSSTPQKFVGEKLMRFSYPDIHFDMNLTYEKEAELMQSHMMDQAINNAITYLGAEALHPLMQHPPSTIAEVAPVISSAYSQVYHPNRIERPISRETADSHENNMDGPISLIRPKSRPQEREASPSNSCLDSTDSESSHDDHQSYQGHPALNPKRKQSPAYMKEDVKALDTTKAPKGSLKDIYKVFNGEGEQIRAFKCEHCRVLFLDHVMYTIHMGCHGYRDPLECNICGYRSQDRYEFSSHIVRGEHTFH
Sequence of UniProt Q96SW2 (whole entry, looked up): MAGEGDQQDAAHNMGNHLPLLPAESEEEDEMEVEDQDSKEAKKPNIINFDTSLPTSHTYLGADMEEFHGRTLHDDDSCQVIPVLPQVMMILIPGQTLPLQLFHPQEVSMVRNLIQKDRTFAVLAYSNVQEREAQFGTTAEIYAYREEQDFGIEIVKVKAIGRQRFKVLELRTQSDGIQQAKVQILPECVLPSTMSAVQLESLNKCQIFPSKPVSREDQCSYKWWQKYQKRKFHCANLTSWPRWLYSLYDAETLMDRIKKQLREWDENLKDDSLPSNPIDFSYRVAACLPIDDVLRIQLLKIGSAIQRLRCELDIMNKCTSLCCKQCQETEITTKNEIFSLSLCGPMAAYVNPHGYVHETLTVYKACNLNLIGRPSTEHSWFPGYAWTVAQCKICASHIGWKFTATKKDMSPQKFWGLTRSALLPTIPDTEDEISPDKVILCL
Action: degrader
Technique: HiBiT
Cell line: HEK293
Tested at: 4.572 nM
Structure (SMILES) | protein remaining
O=C1CCC(N2Cc3c(ccc4c3OCC43CCCN(Cc4ccccc4)CC3)C2=O)C(=O)N1 (stereo not shown) | 96.3%
O=C1CCC(N2Cc3c(ccc4c3OCC43CCN(Cc4ccsc4)CC3)C2=O)C(=O)N1 (stereo not shown) | 60.1%
O=C1CCC(N2Cc3c(ccc4c3OCC43CCN(CC4CCCCC4)CC3)C2=O)C(=O)N1 (stereo not shown) | 75.8%
O=C1CCC(N2Cc3c(ccc4c3OCC43CCN(Cc4ccccc4)CC3(F)F)C2=O)C(=O)N1 (stereo not shown) | 102%
O=C1CCC(N2Cc3c(ccc4c3OCC43CCN(Cc4ccccc4)C3)C2=O)C(=O)N1 (stereo not shown) | 90.8%
O=C1CCC(N2Cc3c(ccc4c3OCC43CCN(Cc4ccccn4)CC3)C2=O)C(=O)N1 (stereo not shown) | 78.7%

Series 4
SMILES: N/C(=N\[N+](=O)[O-])N/N=C\c1ccc(-c2cccc([N+](=O)[O-])c2)o1
Effect on: enzyme activity
Action: inhibitor
Tested at: 0.5 µM
Baseline: control
target | remaining activity [%]
Ribosomal protein S6 kinase alpha-4 (RPS6KA4, Homo sapiens, UniProt O75676) | 98.9
MAP/microtubule affinity-regulating kinase 4 (MARK4, Homo sapiens, UniProt Q96L34) | 87.6
Dual specificity mitogen-activated protein kinase kinase 1 (MAP2K1, Homo sapiens, UniProt Q02750) | 105
Calcium/calmodulin-dependent protein kinase type IV (CAMK4, Homo sapiens, UniProt Q16566) | 95.2
Serine/threonine-protein kinase MARK2 (MARK2, Homo sapiens, UniProt Q7KZI7) | 108
cGMP-dependent protein kinase 2 (PRKG2, Homo sapiens, UniProt Q13237) | 98.7
Rho-associated protein kinase 1 (ROCK1, Homo sapiens, UniProt Q13464) | 91.7
Vascular endothelial growth factor receptor 2 (KDR, Homo sapiens, UniProt P35968) | 96.7
Mitogen-activated protein kinase 14 (MAPK14, Homo sapiens, UniProt Q16539) | 90.2
G protein-coupled receptor kinase 4 (GRK4, Homo sapiens, UniProt P32298) | 95.5
Dual specificity protein kinase CLK3 (CLK3, Homo sapiens, UniProt P49761) | 97.7
Cyclin-dependent kinase 1, with cyclin A (CDK1, Homo sapiens, UniProt P06493) | 100
Serine/threonine-protein kinase PAK 3 (PAK3, Homo sapiens, UniProt O75914) | 95.1

Single results of other studies
Structure (SMILES) | target | test | setting | quantity | result
C=CC(=O)N1CCC[C@@H](n2nc(-c3ccc(Oc4ccccc4)cc3)c3c(N)ncnc32)C1 | Serine/threonine-protein kinase PknB (pknB, Mycobacterium tuberculosis, UniProt P9WI81) | enzyme activity, inhibitor | 1 µM | inhibition | 0%

Repeated from above (series 4):
target | remaining activity [%]
G protein-coupled receptor kinase 4 (GRK4, Homo sapiens, UniProt P32298) | 95.5
Dual specificity protein kinase CLK3 (CLK3, Homo sapiens, UniProt P49761) | 97.7
Cyclin-dependent kinase 1, with cyclin A (CDK1, Homo sapiens, UniProt P06493) | 100
Serine/threonine-protein kinase PAK 3 (PAK3, Homo sapiens, UniProt O75914) | 95.1
